Measured values gathered from unrelated publications.
Compare with care: the assays were run in different laboratories.

CNC(=O)c1ccc(-c2cnc3ncc(Cc4ccc5ncccc5c4)n3n2)cc1F — fraction unbound (ultrafiltration; human severe hepatic function, plasma; oral, 200 mg, 3 h post-dose, geometric mean): 0.042
Cn1cc(-c2cn3nccc3c(-c3cnn([C@]4(CC#N)C[C@@H](C#N)C4)c3)n2)cn1 — fraction excreted unchanged in urine (human, urine; oral, 30 mg once daily, day 10, dosing interval geometric mean): 0.7%
CC(C)(Sc1ccncc1-c1ccc(C#N)c2ccccc12)C(=O)O — fraction excreted in urine (0-24 h) (human, urine; oral, 2.5 mg, together with: febuxostat 0 mg): 1.63%
CN[C@@H]1COc2c(S(=O)(=O)NC(=O)Nc3c4c(cc5c3CCC5)CCC4)cnn2C1 — fraction excreted in urine (human, urine; oral, 300 mg twice daily, 0-12 h, day 7): 0.148
C[C@@H](Oc1ccc(S(C)(=O)=O)cc1C(=O)N1C[C@@H]2C[C@]2(c2cc(C(F)(F)F)on2)C1)C(F)(F)F — fraction excreted in urine at steady state (elderly humans, urine; oral, 50 mg once daily, 0-24 h, multiple dose, geometric mean): 6.68%
C=CC(=O)Nc1cc(Nc2ncc(C(=O)OC(C)C)c(-c3cn(C)c4ccccc34)n2)c(OC)cc1N(C)CCN(C)C — fraction of dose excreted (healthy human, urine; oral, 80 mg single dose, arithmetic mean): 0.74%
O=C(c1nc2n(n1)[C@H](c1ccccc1)C[C@@H]2F)C1CC1 — fraction excreted in urine 0-72 h (human; 25 mg single dose): 0.1 to 0.3%
Cc1cc(-c2nccc3c2ccn3CC(=O)Nc2ccc(-c3cnccn3)cn2)ccn1 — fraction excreted in urine (human, urine; oral, 40 mg single dose, geometric mean): 2.17%

Excerpt of the above:
Cc1cc(-c2nccc3c2ccn3CC(=O)Nc2ccc(-c3cnccn3)cn2)ccn1 — fraction excreted in urine (human, urine; oral, 40 mg single dose, geometric mean): 2.17%
